Assay results gathered from unrelated publications.
Numbered parts are unrelated; each lists some results of a single study.

Block 1
Target: Interferon regulatory factor 7, full length, phosphomimetic (IRF7, Homo sapiens, UniProt Q92985, residues 1-503, S471D/S472D/S475D/S476D/S477D/S483D/S484D/S487D)
Chain of UniProt Q92985 (whole entry, unmodified, looked up): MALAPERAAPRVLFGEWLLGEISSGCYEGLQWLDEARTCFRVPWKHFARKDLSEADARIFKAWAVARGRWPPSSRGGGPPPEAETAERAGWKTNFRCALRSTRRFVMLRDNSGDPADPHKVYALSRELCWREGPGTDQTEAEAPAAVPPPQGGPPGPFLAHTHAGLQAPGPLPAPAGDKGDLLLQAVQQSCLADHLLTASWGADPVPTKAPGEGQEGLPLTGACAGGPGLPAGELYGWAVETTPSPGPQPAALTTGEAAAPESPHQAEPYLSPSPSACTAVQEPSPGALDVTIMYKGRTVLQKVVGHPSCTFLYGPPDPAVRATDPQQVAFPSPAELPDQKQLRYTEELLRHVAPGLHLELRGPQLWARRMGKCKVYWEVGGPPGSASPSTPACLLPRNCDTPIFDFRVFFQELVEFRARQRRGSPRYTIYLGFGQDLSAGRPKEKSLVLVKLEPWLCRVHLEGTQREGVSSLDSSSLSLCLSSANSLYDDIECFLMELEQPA
Method: protein-binding microarray
Form: double-stranded DNA, one strand shown
Matrix: in vitro
Concentration: 2200 nM top
Setting: 60-bp whole probe
Together with: salmon DNA 0.4 mg/ml
Relative to: random background probes
Direction: higher = stronger binding
| Strand | fitted relative affinity [z-score] |
| --- | --- |
| GCCTAGCACTGAGGTATCGACTATCGGTTAGTGCTAGTCTTGATTCGCTTGACGCTGCTG | 0.0906 |
| GCCTAGCACGGTCCTCTGGGCTGTTTGGCCGTGCTAGTCTTGATTCGCTTGACGCTGCTG | -0.968 |
| GCCTAGCACTTAGGACTGGACACCGGGTTAGTGCTAGTCTTGATTCGCTTGACGCTGCTG | -0.681 |
| GCCTAGCACGTGTTTTCACTTTTCCTACAGTGCTAGGTCTTGATTCGCTTGACGCTGCTG | 7.61 |

Block 2
Target: Ras GTPase-activating protein-binding protein 1, full length (G3BP1, Homo sapiens, UniProt Q13283)
Chain of UniProt Q13283 (whole entry, looked up): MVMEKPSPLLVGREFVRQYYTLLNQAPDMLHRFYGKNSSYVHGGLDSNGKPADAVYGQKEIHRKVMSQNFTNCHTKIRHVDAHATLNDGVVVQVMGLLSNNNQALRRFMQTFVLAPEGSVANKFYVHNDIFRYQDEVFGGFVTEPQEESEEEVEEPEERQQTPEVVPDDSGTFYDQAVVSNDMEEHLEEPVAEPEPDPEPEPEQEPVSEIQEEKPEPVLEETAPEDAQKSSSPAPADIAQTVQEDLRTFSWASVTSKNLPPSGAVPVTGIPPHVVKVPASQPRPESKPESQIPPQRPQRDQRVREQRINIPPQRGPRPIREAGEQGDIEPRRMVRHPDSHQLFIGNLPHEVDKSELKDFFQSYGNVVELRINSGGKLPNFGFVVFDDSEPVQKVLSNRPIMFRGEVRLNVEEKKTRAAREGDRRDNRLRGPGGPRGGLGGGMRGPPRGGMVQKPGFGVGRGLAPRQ
Method: RNA Bind-n-Seq
Form: RNA
Matrix: in vitro
Concentration: 200 nM
Setting: whole 134-nt RNA, ends assumed
Together with: 150 mM KCl
Relative to: input library
Direction: higher = stronger binding
| Strand | log2 enrichment |
| --- | --- |
| GGGAGUUCUACAGUCCGACGAUCUAACUUUAGAGGAGGAUCUGAUGGAUAAGGCAGUGGACGUGGAUUUGGGGAUGGCUAUAAUGGGUAUGGAGGAGGACCUGGAGGUGGCAAUGGAAUUCUCGGGUGUCAAGG | 0.182 |
| GGGAGUUCUACAGUCCGACGAUCCAAGUCCUGUGCUACACAUCGUAUGUACCGAAUCGGAGGAAAAAAAGGUUUUUGGAAAGUAUUAUGUUACGCCGUUCGGAUCUGCACUUCUGGAAUUCUCGGGUGUCAAGG | -1.15 |
| GGGAGUUCUACAGUCCGACGAUCUUAUUGAACUGACAAGGUCCUCCCUGUGUUGUAGCAAGGACCAGACUGGCUUGAGCUCUCUGAGAUGACCGAGCAGCCAGACUAUGACCUUGGAAUUCUCGGGUGUCAAGG | 1.11 |

Block 3
Target: RNA binding protein fox-1 homolog 2, RRM domain, GST-SBP tag (RBFOX2, Homo sapiens, UniProt O43251-10, residues 100-194)
Method: RNA Bind-n-Seq
Form: RNA
Matrix: in vitro
Concentration: 365 nM
Setting: natural RNA segment, single round, ends assumed
Relative to: no-protein control
Direction: higher = stronger binding
Construct (chain): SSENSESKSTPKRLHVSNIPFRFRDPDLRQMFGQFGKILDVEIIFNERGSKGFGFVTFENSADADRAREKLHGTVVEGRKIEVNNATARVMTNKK
| Strand | RBNS enrichment (R) |
| --- | --- |
| GGGAGUUCUACAGUCCGACGAUCGAAAGAACAUAUUAAAACUUCUUUCCCUUGCGAUUUUUUUGGGGGAGGGGGGUUAGCAUUUCCACUUUCAGUUGAGUAGCAUUUUGUAGAAUAAAAUGAAUUAAGAUUGAUGGAAUUCUCGGGUGCCAA | 0.427 |
| GGGAGUUCUACAGUCCGACGAUCAGUCUGCUCUUGUAUUUCUUUCCCUCCCCGAGAAGGGAGGGAGCCACUUUCAGGCCCUCCGGUGUGUUGCCUGGUAGGAUAACUGCUCCAAGCAGCUACCUACCUUGACUUGGAAUUCUCGGGUGCCAA | 0.157 |
| GGGAGUUCUACAGUCCGACGAUCCACCCCUGGACUUGAUCAGUAUUCAACCUUGUCUCCUGUCCCCAAUGUCGUAAGCACAAUUAGACUUCUUCCGGCUUGAGUUUGCUGCCUCCUACAGCAAGGACAGGAAUUGGAAUUCUCGGGUGCCAA | 0.495 |

Mixed results
| Molecule | target | test | system | conditions | how to read | quantity | value |
| --- | --- | --- | --- | --- | --- | --- | --- |
| PhoQ, residues 284 288 289 292 302 303 TTSMTC | PhoP, residues 12 14 15 18 19 SGWQI (Escherichia coli, UniProt P23836) | Sort-seq, refers to: YFP reporter | E. coli | PhoQ-PhoP variant library, together with: 10 µM Mg2+ | relative to: high Mg2+ state, higher = stronger signaling | fold induction | 6.25 |

Repeated from above (block 2):
| Strand | log2 enrichment |
| --- | --- |
| GGGAGUUCUACAGUCCGACGAUCUAACUUUAGAGGAGGAUCUGAUGGAUAAGGCAGUGGACGUGGAUUUGGGGAUGGCUAUAAUGGGUAUGGAGGAGGACCUGGAGGUGGCAAUGGAAUUCUCGGGUGUCAAGG | 0.182 |
